# Published values of several laboratories.
# Protocols differ between the studies behind these lines. Several values in a cell are separate wells, animals, samples, runs or records. Numbers after ± are the reported error.
# rep main protease: Replicase polyprotein 1ab, main protease (rep, Severe acute respiratory syndrome coronavirus 2, UniProt P0DTD1)
SMILES,target or system,assay,test system,setting,quantity,result
COc1ccc(C[C@@H]2c3cc(Oc4cc(C[C@@H]5c6cc(O)c(OC)cc6CCN5C)ccc4O)c(OC)cc3CCN2C)cc1,SARS-CoV-2,cytopathic effect,Vero C1008,0.7812 µM,inhibition,0%
Cc1nn(-c2ccc(Cl)cc2)c2c1C(c1c(Cl)cccc1Cl)C(C#N)=C(N)O2 (stereo not shown),SARS-CoV-2,viral replication,Vero,10 µM,inhibition,46.2%
NCCCNCCCN1CCCCCCCCCCCC1,SARS-CoV-2,"viral replication, mNeonGreen reporter virus",,50 µM,inhibition,32.1%
COC(=O)C[C@H](NC(=O)[C@H](C)NC(=O)[C@@H](NC(=O)OCc1ccccc1)C(C)C)C(=O)CF,rep main protease,"reporter gene (mKate2), inhibitor",,20 µM,inhibition,-0.475%
Cn1cnc(Cn2c(=O)[nH]/c(=N\c3cc4cn(C)nc4cc3Cl)n(Cc3cc(F)c(F)cc3F)c2=O)n1,SARS-CoV-2,viral replication,"Vero C1008, XBB.1",0.01715 µM,inhibition,0%
CN(C)c1ccc(N(Cc2cc(Cl)cs2)C(=O)Cc2cncc3cccc(O)c23)cc1,SARS-CoV-2,"viral replication, item: nucleocapsid","NHBE, Omicron BA.5","1 µM, 3 h pretreatment",inhibition,84.8%
CCN(CCO)CCCC(C)Nc1ccnc2cc(Cl)ccc12 (stereo not shown),SARS-CoV-2,,,0.47 µM,inhibition,7.37%
CN(C)CCn1c(C(=O)N2CCN(c3ccccc3Cl)CC2)c(C(c2ccc(O)cc2)c2ccc(O)cc2)c2ccccc21,SARS-CoV-2,viral replication,"Vero E6, USA-WA1/2020",2.5 µM,inhibition,55.3%
CC[C@H](C)[C@H](NC(=O)[C@H](CC(C)C)NC(=O)[C@H](Cc1c[nH]c2ccccc12)NC(=O)[C@H](CCC(N)=O)NC(=O)[C@@H](NC(=O)[C@H](Cc1ccccc1)NC(=O)[C@H](C)NC(=O)[C@H](CCCCNC(=O)COCCOCCNC(=O)COCCOCCNC(=O)CC[C@H](NC(=O)CCCCCCCCCCCCCCCCCCC(=O)O)C(=O)O)NC(=O)[C@H](CCC(N)=O)NC(=O)[C@H](C)NC(=O)[C@@H](NC(=O)[C@H](CCCCN)NC(=O)[C@H](CC(=O)O)NC(=O)[C@H](CC(C)C)NC(=O)C(C)(C)NC(=O)[C@@H](NC(=O)[C@H](CO)NC(=O)[C@H](Cc1ccc(O)cc1)NC(=O)[C@H](CC(=O)O)NC(=O)[C@H](CO)NC(=O)[C@@H](NC(=O)[C@H](Cc1ccccc1)NC(=O)[C@@H](NC(=O)CNC(=O)[C@H](CCC(=O)O)NC(=O)C(C)(C)NC(=O)[C@@H](N)Cc1ccc(O)cc1)[C@@H](C)O)[C@@H](C)O)[C@@H](C)CC)[C@@H](C)CC)C(C)C)C(=O)N[C@@H](C)C(=O)NCC(=O)NCC(=O)N1CCC[C@H]1C(=O)N[C@@H](CO)C(=O)N[C@@H](CO)C(=O)NCC(=O)N[C@@H](C)C(=O)N1CCC[C@H]1C(=O)N1CCC[C@H]1C(=O)N1CCC[C@H]1C(=O)N[C@@H](CO)C(N)=O,,,"healthy subjects, single ascending dose","8.0 mg, day 29",serum AST,28.1 ± 15.5 U/L
CC(C)CC(=O)N[C@H](C(=O)N[C@H](C(=O)N[C@@H](CC(C)C)[C@@H](O)CC(=O)N[C@@H](C)C(=O)N[C@@H](CC(C)C)[C@@H](O)CC(=O)O)C(C)C)C(C)C,rep main protease,"reporter gene (mKate2), inhibitor",,20 µM,inhibition,-0.884%
O=C(CSc1nc2ccccc2c(=O)[nH]1)NNC(=O)c1ccccc1Br,SARS-CoV-2,"virucidal activity, plaque reduction",,62.5 µM,inhibition,37.3 ± 6.43%
Cn1cnc(Cn2c(=O)[nH]/c(=N\c3cc4cn(C)nc4cc3Cl)n(Cc3cc(F)c(F)cc3F)c2=O)n1,,,"human, normal renal function","oral, 375 mg","anaemia TEAE, Moderate severity",0%
O=C(NC[C@H]1Cc2ccccc2CN1C(=O)c1n[nH]c(=O)[nH]c1=O)c1cccc2ccncc12,rep main protease,"enzyme activity, inhibitor",,"5 µM, run 1",inhibition,13%
Nc1ncnc2c([C@@H]3N[C@H](CO)[C@@H](O)[C@H]3O)c[nH]c12,Japanese encephalitis virus,"viral replication, inhibitor",Vero 76,0.3 µM,inhibition,0%
Cc1ccn(-c2ccc(C(=O)N3Cc4cccnc4Nc4ccccc43)c(C(F)(F)F)c2)n1,SARS-CoV-2,viral replication,"Vero C1008, USA-WA1/2020","2.5 µM, reconfirmation",inhibition,59.5%
CC(C)(C)[C@H](NC(=O)C(F)(F)F)C(=O)N1C[C@H]2[C@@H]([C@H]1C(=O)N[C@H](C#N)C[C@@H]1CCNC1=O)C2(C)C,SARS-CoV-2,viral replication,Vero E6,0.0195 µM,inhibition,9.08% and 0% and 0.39%
CN1Cc2cc(Cl)ccc2-n2c(nnc2[C@H]2CC[C@H](Oc3ccccn3)CC2)C1,SARS-CoV-2,viral replication,"Vero E6, USA-WA1/2020",2.5 µM,inhibition,52.6%
O=C(O[C@@H]1Cc2c(O)cc(O)cc2O[C@@H]1c1cc(O)c(O)c(O)c1)c1cc(O)c(O)c(O)c1,SARS-CoV-2,viral cytopathic effect,Vero E6,1.562 µM,inhibition,0%
COc1cccc2c(N3CCc4ccccc4C3C)nc(Nc3ccc(F)cc3C)nc12 (stereo not shown),SARS-CoV-2,viral replication,"Vero C1008, USA-WA1/2020","2.5 µM, reconfirmation",inhibition,63.1%
O=C(CSc1nc2c(c(=O)[nH]1)CCCC2)NNC(=O)c1ccc(Cl)cc1,SARS-CoV-2,"viral replication, plaque reduction",,31.25 µM,inhibition,31.6 ± 4.27%
CC[C@H](NC(=O)[C@H](CS(=O)(=O)CC1CC1)N[C@@H](c1ccc(F)cc1)C(F)(F)F)C(=O)C(=O)NC1CC1,SARS-CoV-2,viral replication,"Vero C1008, USA-WA1/2020","2.5 µM, reconfirmation",inhibition,94.9%
CC(C)(C)[C@H](NC(=O)C(F)(F)F)C(=O)N1CC2(CC2)C[C@H]1C(=O)N[C@H](C#N)C[C@@H]1CCNC1=O,SARS-CoV-2,"viral replication, qRT-PCR viral RNA",Vero E6,1 µM,inhibition,35%
